Results pooled from the literature.
Parts stem from different laboratories: compare values within a part only. Positions count from the first letter of the parent shown.

Block 1
Target: ABI1, truncated, D143A, DHFR fusion (Arabidopsis thaliana)
Technique: DHFR PCA, deep sequencing
Matrix: yeast
Notes: methotrexate growth selection, single substitutions
Together with: (+)-ABA 4.8 µM
Reference: wild-type fitted maximum
Direction: higher = stronger binding
Quantity: relative binding score
Starting sequence: PYL1, truncated, DHFR fusion (Arabidopsis thaliana); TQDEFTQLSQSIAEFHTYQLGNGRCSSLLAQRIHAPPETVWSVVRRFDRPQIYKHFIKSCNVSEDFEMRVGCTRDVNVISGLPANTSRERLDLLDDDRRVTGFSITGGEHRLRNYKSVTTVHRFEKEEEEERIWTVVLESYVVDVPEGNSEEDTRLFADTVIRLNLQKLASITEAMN; partner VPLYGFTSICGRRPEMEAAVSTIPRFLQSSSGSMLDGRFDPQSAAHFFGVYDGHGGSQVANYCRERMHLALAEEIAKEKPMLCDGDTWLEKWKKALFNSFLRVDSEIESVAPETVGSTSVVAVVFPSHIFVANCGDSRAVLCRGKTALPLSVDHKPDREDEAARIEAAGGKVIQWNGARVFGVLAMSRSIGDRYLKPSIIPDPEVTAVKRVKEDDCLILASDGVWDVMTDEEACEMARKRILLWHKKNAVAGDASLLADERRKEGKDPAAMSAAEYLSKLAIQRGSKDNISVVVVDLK
Q2L: 76.9%
T120M: 0.163%
S63K: 68.3%
T120H: -1.71%
N114Q: -1.88%
T154Y: -13.2%
R49A: 71.5%
N77C: 77.9%
V44T: -14.8%
M176S: 54.4%
N77Y: 76.8%
C72D: 61.7%

Block 2
Target: CCNB2, cyclin fold, Cln2 fusion (human)
Technique: yeast growth competition, sequencing
Matrix: yeast
Notes: weak parent motif
Reference: not given
Direction: higher = stronger binding
Quantity: normalised enrichment score
Starting sequence: E2F1 docking peptide (human); PPVKRRLDLETDH
PMVKRRLDLETDH [P2M]: -0.248
PPVKRRLDLVTDH [E10V]: 0.18
PPVKRRLDLETDP [H13P]: 0.331
PPVKVRLDLETDH [R5V]: -0.375
PKVKRRLDLETDH [P2K]: 0.781
PPVKRRLGLETDH [D8G]: 0.936
PPVKRVLDLETDH [R6V]: 0.0733
PPVKRRLPLETDH [D8P]: -0.00393

Block 3
Target: Interferon regulatory factor 7, full length, phosphomimetic (IRF7, Homo sapiens, UniProt Q92985, residues 1-503, S471D/S472D/S475D/S476D/S477D/S483D/S484D/S487D)
Sequence of UniProt Q92985 (whole entry, unmodified, looked up): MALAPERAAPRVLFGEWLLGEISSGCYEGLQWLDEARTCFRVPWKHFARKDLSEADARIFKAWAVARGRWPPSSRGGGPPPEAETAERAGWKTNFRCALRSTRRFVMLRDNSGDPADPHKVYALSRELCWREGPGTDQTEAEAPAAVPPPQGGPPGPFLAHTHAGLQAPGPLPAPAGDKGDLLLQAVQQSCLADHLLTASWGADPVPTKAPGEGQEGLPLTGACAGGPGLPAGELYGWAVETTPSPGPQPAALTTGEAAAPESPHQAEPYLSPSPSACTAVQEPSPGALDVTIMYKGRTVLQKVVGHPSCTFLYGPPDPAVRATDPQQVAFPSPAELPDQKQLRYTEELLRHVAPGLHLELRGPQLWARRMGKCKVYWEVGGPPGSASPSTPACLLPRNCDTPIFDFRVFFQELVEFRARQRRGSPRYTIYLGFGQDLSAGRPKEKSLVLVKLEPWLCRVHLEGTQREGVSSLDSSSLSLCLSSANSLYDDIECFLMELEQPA
Technique: protein-binding microarray
Form: double-stranded DNA, one strand shown
Matrix: in vitro
Tested at: 2200 nM top
Notes: 60-bp whole probe
Together with: salmon DNA 0.4 mg/ml
Reference: random background probes
Direction: higher = stronger binding
Quantity: fitted relative affinity
Shared flanks, not repeated: GCCTAGCAC … GTCTTGATTCGCTTGACGCTGCTG
GACGGTCTCGGTCTCGGGCCGTGCTAG: -0.306 z-score
TTGCTTCTATAGGCTAGAATCGTGCTA: 0.0605 z-score
GACAATTTCGGGTTTCGAGACGTGCTA: 5.6 z-score
TTAGGTCTCCTTATCCCTTAGTGCTAG: 1.16 z-score
GACGCTCTCGGTCTCGGGACGTGCTAG: 0.441 z-score
TCATTTTTTAGCTTCTCACTGTGCTAG: 1.91 z-score
TTAGAACTGAGACAGGATTAGTGCTAG: -0.788 z-score
TTAGGTTCCCTTTTCTTTTAGTGCTAG: 2.68 z-score
GACCGTTTCGGTTTCGGGACGTGCTAG: 11.8 z-score
GACGGACTGGATACTGGGGACGTGCTA: -0.883 z-score

Mixed results
PhoQ, residues 284 288 289 292 302 303 NLGVHL — fold induction (PhoP, residues 12 14 15 18 19 TPWLV (Escherichia coli, UniProt P23836); Sort-seq, refers to: YFP reporter; E. coli; PhoQ-PhoP variant library, together with: 10 µM Mg2+; reference: high Mg2+ state, higher = stronger signaling): 6.23

Some of these lines once more (block 3):
TCATTTTTTAGCTTCTCACTGTGCTAG: 1.91 z-score
TTAGAACTGAGACAGGATTAGTGCTAG: -0.788 z-score
TTAGGTTCCCTTTTCTTTTAGTGCTAG: 2.68 z-score
